Experimental data from different studies.
Lines come from different studies, so protocols differ.
KRAS G12D: GTPase KRas (KRAS, Homo sapiens, UniProt P01116, G12D)
KRAS: GTPase KRas (KRAS, Homo sapiens, UniProt P01116)

Cc1ncsc1-c1ccc(C(CO)NC(=O)C2CC(O)CN2C(=O)C(NC(=O)c2ccc(COc3c(-c4c(C)c(F)cc5[nH]ncc45)c(C4CC4)cc4c(N5CC6CC5CN6)nc(OC5CCOCC5)nc34)cc2)C(C)C)cc1 (stereo not drawn)
DC50 (KRAS G12D; degrader, In-Cell ELISA; AsPC-1; 24 h): 0.106 µM

C=CC(=O)N1C[C@H](C)N(c2nc(OC[C@@]34CCCN3C[C@H](F)C4)nc3c(F)c(-c4ccc(F)c5sc(N)c(C#N)c45)c(C(F)(F)F)cc23)C[C@H]1C
IC50 (GTPase KRas, GppNHp; with RAF1 RBD (KRAS, Homo sapiens, UniProt P01116, G12C); KRAS G12C-RAF1 RBD interaction, inhibitor, HTRF; GppNHp-bound): < 0.1 µM

O=C(NCc1c(F)cccc1Cl)c1csc(-c2n[nH]c3ccccc23)c1
Kd (GTPase KRas (KRAS, Homo sapiens, UniProt P01116, G12V); binding, MST): 0.0184 µM

Oc1ccc(C(=NNc2ccccc2)c2ccc(O)cc2)cc1
IC50 (KRAS; enzyme activity, inhibitor): 1830 µM

Nc1nc2c(-c3c(C(F)(F)F)cc4c(N5CCNCC5)nc(OCC56CCCN5CCC6)nc4c3F)ccc(F)c2s1
Kd (GTPase KRas, GppNHp-bound (KRAS, Homo sapiens, UniProt P01116, G12D); SPR; GppNHp-bound KRAS G12D): 0.52 µM

CC[C@H](C)[C@H](N)C(=O)Nc1ccc2nc(Cc3c[nH]c4ccccc34)[nH]c2c1
IC50 (KRAS G12D; enzyme activity, inhibitor): 308 µM

COCCNc1nc(-c2nccn2C)nc2sc(-c3cccc(OC)c3Cl)c(-c3ccccc3)c12
IC50 (KRAS; GTP binding, inhibitor, cell-free GTP competition; added: fluorescent GTP 100 nmol/L): 2.5 µM

CC(C)(C)OC(=O)NCCNC(=O)c1ccc2[nH]c(/C(=N/Nc3ccc(F)cc3)c3ccc(O)cc3)nc2c1
IC50 (KRAS; enzyme activity, inhibitor): 1970 µM

Cc1ncsc1-c1ccc(C2(NC(=O)C3CC(O)CN3C(=O)C(NC(=O)c3ccc(COc4c(-c5c(C)c(F)cc6[nH]ncc56)c(C5CC5)cc5c(N6CC7CC6CN7)nc(OC6CCOCC6)nc45)cc3)C(C)C)CC2)cc1 (stereo not drawn)
DC50 (KRAS G12D; degrader, In-Cell ELISA; AsPC-1; 24 h): 0.181 µM

For quick reference, copied from above:
Cc1ncsc1-c1ccc(C(CO)NC(=O)C2CC(O)CN2C(=O)C(NC(=O)c2ccc(COc3c(-c4c(C)c(F)cc5[nH]ncc45)c(C4CC4)cc4c(N5CC6CC5CN6)nc(OC5CCOCC5)nc34)cc2)C(C)C)cc1 (stereo not drawn)
DC50 (KRAS G12D; degrader, In-Cell ELISA; AsPC-1; 24 h): 0.106 µM
